Assay results from different studies.
Parts stem from different laboratories: compare values within a part only. Changes are numbered by the printed parent chain.

Set 1
Target: Sal-like protein 4, full length isoform B (SALL4, Homo sapiens, UniProt Q9UJQ4-2, residues 1-616)
Technique: universal PBM
Form: double-stranded DNA, one strand shown
Sample: in vitro
Concentration: not given
Notes: 8-mer, flanks averaged, mean of replicates
Direction: higher = stronger binding
Target sequence (chain): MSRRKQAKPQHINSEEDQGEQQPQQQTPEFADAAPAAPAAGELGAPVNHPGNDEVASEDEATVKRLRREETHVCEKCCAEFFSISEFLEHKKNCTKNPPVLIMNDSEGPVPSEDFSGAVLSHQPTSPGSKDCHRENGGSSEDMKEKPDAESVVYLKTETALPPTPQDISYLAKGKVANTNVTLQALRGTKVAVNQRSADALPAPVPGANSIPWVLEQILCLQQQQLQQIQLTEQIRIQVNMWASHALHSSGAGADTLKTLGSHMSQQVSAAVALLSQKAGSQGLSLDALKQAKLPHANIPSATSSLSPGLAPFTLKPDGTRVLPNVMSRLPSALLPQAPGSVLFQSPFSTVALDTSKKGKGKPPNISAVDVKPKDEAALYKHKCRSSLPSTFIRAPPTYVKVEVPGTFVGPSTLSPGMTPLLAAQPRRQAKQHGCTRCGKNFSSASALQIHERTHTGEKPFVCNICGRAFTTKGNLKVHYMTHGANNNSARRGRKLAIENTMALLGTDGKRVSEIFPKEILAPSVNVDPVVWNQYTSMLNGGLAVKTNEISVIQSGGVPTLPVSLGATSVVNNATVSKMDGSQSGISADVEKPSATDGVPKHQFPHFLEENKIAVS
Oligonucleotide | E-score
AGCATCTA | 0.166
AGAGACGC | -0.202
GGCCGGTA | -0.175
CGTTGAAA | -0.00216
AGAACTGA | 0.00094
AACGCAAG | -0.0338
GGCGTTGA | -0.157
CAGTGCCG | -0.266
CCCCAAGC | -0.209
CAACGATA | 0.258
GAGGGCTA | -0.141
AGACGAGG | -0.269
AAGCAGGT | -0.0732
GATCGAGA | -0.0411
ATCTGCCA | -0.0477
AGTACTAT | 0.111
CTACATGA | 0.0451
CCGGTTTA | -0.102
ATTAACGC | 0.164
AGCAGTAC | 0.0472
CTACCTAG | 0.0528
AAACGCGG | -0.105
ATTACGCG | 0.152
AGGATCAG | -0.239
GCCGACTA | -0.138

Set 2
Target: CCNB3, cyclin fold, Cln2 fusion (human)
Technique: yeast growth competition, sequencing
Sample: yeast
Notes: weak parent motif
Baseline: not given
Direction: higher = stronger binding
Parent: USP37 docking peptide (human); PSAKRSLGFLPQP
Variant | normalised enrichment score
L7A | 0.104
P1A | 0.101
P11A | -0.21
K4A | 0.413
S6A | 0.328
G8A | 0.0911

Set 3
Target: ABI1, truncated, D143A, DHFR fusion (Arabidopsis thaliana)
Technique: DHFR PCA, deep sequencing
Sample: yeast
Notes: methotrexate growth selection, single substitutions
With: (+)-ABA 58 µM
Baseline: wild-type fitted maximum
Direction: higher = stronger binding
Parent: PYL1, truncated, DHFR fusion (Arabidopsis thaliana); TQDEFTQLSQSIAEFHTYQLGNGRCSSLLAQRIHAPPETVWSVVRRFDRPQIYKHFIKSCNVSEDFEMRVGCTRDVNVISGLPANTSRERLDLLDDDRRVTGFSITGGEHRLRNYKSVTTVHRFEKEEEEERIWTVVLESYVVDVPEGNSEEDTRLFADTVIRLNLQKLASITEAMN
Variant | relative binding score
F66C | 78.2%
L82F | 41.1%
L112N | -4.64%
L164E | 56.1%
N85D | 82.3%
V70N | 45.4%
C72F | 61.4%
E125C | 96.4%
R132V | 92.7%
V142Q | 77.5%
K116Q | 85.6%
G102D | -17.6%
R99D | -2.03%
V44F | -9.94%
G71N | 54.4%
T120A | 7.44%

Set 4
Target: Ras GTPase-activating protein-binding protein 1, full length (G3BP1, Homo sapiens, UniProt Q13283)
UniProt Q13283, sequence (whole entry, looked up): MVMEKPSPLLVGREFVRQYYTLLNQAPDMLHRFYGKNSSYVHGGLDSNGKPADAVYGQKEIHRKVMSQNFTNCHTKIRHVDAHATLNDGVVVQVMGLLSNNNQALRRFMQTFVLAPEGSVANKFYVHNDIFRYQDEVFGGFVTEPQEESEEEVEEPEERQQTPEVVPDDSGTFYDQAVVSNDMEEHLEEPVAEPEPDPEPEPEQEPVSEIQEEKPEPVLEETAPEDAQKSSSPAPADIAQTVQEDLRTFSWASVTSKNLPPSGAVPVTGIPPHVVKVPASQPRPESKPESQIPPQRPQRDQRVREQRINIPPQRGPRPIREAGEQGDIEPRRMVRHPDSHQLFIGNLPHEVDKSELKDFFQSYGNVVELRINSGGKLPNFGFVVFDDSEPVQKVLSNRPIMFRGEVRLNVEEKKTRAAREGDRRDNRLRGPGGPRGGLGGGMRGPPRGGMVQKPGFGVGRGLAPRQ
Technique: RNA Bind-n-Seq
Form: RNA
Sample: in vitro
Concentration: 200 nM
Notes: whole 134-nt RNA, ends assumed
With: 150 mM KCl
Baseline: input library
Direction: higher = stronger binding
Constant ends, left off below: GGGAGUUCUACAGUCCGACGAUC … UGGAAUUCUCGGGUGUCAAGG
Oligonucleotide | log2 enrichment
ACCAUGCAGGUGGGCAUCUUUGGGAAGUGGGGCAAGGGGGGGAUAGGGAGGGGGGUAACACUUUGGAAACAGGUGGUCCCAGGUCGUUUC | 1.26
CUCAAGUCCUGUGCUACACAUCGUAUGUACCGAAUCGGGGCGGCGGGGCGGGGAAAGUAUUAUGUUACGCCGUUCGGAUCUGCACUUCCA | 0.842
UGGGAGGUGGAUUUUGUUUAUUAUUUUAGCUCAUUUCCAGGGGUGGGAAUUUUUUUUUAAUAUGUGUCAUGAAUAAAGUUGUUUUUGAAA | 0.226
GCAGGAAGUAAAAACAAAUGGAAAUGCUUCGGAUAGUGGCAGGGGUGGGAAAUGCUAAGGAAAGGGUGGGAUGGGAGUGGGUAAAGAGUU | 1.16
GCAGGAAGUAAAAACAAAUGGAAAUGCUUCGGAUAGUGGCAGGGGUGGGGGUUGCUAAGGAAAGGGUAGGAUGGGAGUGGGUAAAGAGUU | 1.08
GUCCUGUGCUACACAUCGUAUGUACCGAAUCGGCCCCCCGGCCCCCCGGGCCCCCCGGGAAAGUAUUAUGUUACGCCGUUCGGAUCUGCA | -0.25
CACAGACAACAAAAACCCACACAGACACAGAGGGAAGGGGUUGGGAUGGGGACAGGGUGCACAGCAGGGCGGGGUAGGACCCCAGCCCCU | 1.85
UGGCCCUGGUGGCAUGCGGGGAGGAAGAGGUGGCCUCAUGGAUCGUGGUGGUCCCGGUGGAAUGUUCAGAGGUGGCCGUGGUGGACACAG | -0.0902
UGGCCCUGGUGGCAUGCGGGGGGGAAGAGGUGGCCUCAUGGAUCGUGGUGGUCCCGGUGGAAUGUUCAGAGGUGGCCGUGGUGGAGACAG | 0.581
AAGUCCUGUGCUACACAUCGUAUGUACCGAAUCGGGUUUGGGAAAAAAAGGGAGGGAAAGUAUUAUGUUACGCCGUUCGGAUCUGCACUU | 0.483

Set 5
Target: Histone acetyltransferase KAT6A, both winged helices, GST fusion (KAT6A, Homo sapiens, UniProt Q92794, residues 1-181)
Technique: protein binding microarray
Form: double-stranded DNA, one strand shown
Sample: in vitro
Concentration: not given
Notes: 8-mer, flanks averaged, mean of 2 arrays, mostly near background
Baseline: not given
Direction: higher = stronger binding
Residues (chain): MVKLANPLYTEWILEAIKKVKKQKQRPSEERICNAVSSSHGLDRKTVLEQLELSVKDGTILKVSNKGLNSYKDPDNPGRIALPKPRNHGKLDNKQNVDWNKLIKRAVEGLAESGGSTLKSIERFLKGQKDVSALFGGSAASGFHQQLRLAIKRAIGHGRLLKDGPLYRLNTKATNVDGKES
Oligonucleotide | E-score
AAGCTTTG | -0.147
AAACTGAC | -0.0638
ATGCCACA | -0.257
CGCTATCA | 0.187
AACCAATA | -0.0724
ACCATCCG | 0.0438
CTGGACCA | -0.196
ACGAAGCG | 0.114
CGCGCTAG | 0.349
GCCGCTAA | 0.283
CTTTGTTC | 0.0254
GCAATGAC | -0.117
GGGTTATA | 0.0369
ACACAAAC | -0.126
AAGTGGAA | -0.176
ACGCGCGA | 0.372
TAGAGCAA | -0.156
GCTCGCAC | 0.161
GCGCATAC | 0.325
CACGCCCG | 0.283
AAGATTGC | -0.0355
CTGGATAC | -0.0688
AGGCACCG | 0.0157
CTCCACCC | -0.183
GTCCTGCA | -0.219
